Published values pooled from the literature.
Every numbered part comes from another study and shows a few of its results, in no order. “And” joins repeats or separate records; there may be more than shown.

Series 1 — method: RNA Bind-n-Seq; molecule type: RNA; matrix: in vitro; tested at: 1 µM; setting: whole 134-nt RNA, ends assumed; together with: 150 mM KCl; reference: input library; reading: higher = stronger binding
Target: Ras GTPase-activating protein-binding protein 1, RRM domain (G3BP1, Homo sapiens, UniProt Q13283)
Sequence of UniProt Q13283 (whole entry, looked up): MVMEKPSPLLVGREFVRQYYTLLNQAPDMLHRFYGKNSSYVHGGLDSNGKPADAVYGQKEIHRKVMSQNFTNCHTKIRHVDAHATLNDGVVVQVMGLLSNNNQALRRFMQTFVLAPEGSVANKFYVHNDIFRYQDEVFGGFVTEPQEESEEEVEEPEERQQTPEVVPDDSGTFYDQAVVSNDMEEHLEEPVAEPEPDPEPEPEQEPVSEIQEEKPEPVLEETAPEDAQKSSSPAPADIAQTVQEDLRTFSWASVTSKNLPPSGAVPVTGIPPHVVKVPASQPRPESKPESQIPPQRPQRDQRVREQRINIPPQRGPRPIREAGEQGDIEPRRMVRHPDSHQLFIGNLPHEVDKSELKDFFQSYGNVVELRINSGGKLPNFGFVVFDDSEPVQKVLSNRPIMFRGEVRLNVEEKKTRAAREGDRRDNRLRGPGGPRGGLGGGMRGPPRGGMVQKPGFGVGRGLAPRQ
Shared flanks, not repeated: GGGAGUUCUACAGUCCGACGAUC … UGGAAUUCUCGGGUGUCAAGG
Sequence	log2 enrichment
UCCUGUGCUACACAUCGUAUGUACCGAAUCGGGCCCCCCGGGCCCCCCGGGCCCCCCGGGAAAGUAUUAUGUUACGCCGUUCGGAUCUGC	-0.457
GGGGGUGACCGCCGGAGCGCGGCGUGAGCCCUCCCCCUUGGGAUCCCGCAGCUGACCAGUCGCGCUGACGGACAGACAGACAGACACCGC	-0.673
UCAAGUCCUGUGCUACACAUCGUAUGUACCGAAUCGGGGUUGGGGUUGGUUGGGAAAGUAUUAUGUUACGCCGUUCGGAUCUGCACUUCC	-0.124
UAACUUUAGAGGAGGAUCUGAUGGAUAUGGCAGUGGACGUGGAUUUAGGGAUGGCUAUAAUGGGUAUGGAGGAGGACCUGGAGGUGGCAA	-0.752
UUAAGAAUUUGCUUAAAGAAGUGCGGAUCUAUGCACAGAAAUUUAUUGAUCGAGGAAAGGAUUUUAACUUGGAGUUGGCAAUUAAAACAC	0.0876
UGUGCUACACAUCGUAUGUACCGAAUCGGGGCCCCCCCGGGCCCCCCCGGGCCCCCCCGGGGAAAGUAUUAUGUUACGCCGUUCGGAUCU	-0.71
UCAAGUCCUGUGCUACACAUCGUAUGUACCGAAUCGGUUGGGGUUGGGGUUGGGAAAGUAUUAUGUUACGCCGUUCGGAUCUGCACUUCC	0.408
UUUUACUUCUCCGCCAGGUGCUGUGCUCCAUCAUCGCCGGUACCUUGCACUAUCUCUACCUGGCCACCUUGACCUGGAUGCUGCUGGAGG	0.0162

Series 2 — method: protein binding microarray; molecule type: double-stranded DNA, one strand shown; matrix: in vitro; tested at: not given; reference: not given; reading: higher = stronger binding
Target: Histone acetyltransferase KAT6A, winged helix 1, GST fusion (KAT6A, Homo sapiens, UniProt Q92794, residues 1-85)
Setting: 8-mer, flanks averaged, mean of 2 arrays, mostly near background
Residues (chain): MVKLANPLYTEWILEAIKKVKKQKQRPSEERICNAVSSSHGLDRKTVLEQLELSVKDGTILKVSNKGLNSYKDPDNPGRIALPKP
Sequence	E-score
AGCGGATG	0.213
CACGTGTA	-0.159
ACAAATCC	-0.131
ACACAGGC	-0.252
CGTAATTA	0.123
AGCATAGC	-0.0414
ATCGGGGC	0.207
AGTCACTC	-0.0777

Single results of other studies
Compound	target or system	assay	test system	conditions	how to read	measurement	result
COc1cc(C(=O)N2CCC(N3CCN(C)CC3)CC2)ccc1Nc1ncc2c(n1)N(C)c1ccccc1C(=O)N2C	AKT2	KINOMEscan	–	10 µM	reference: DMSO control, lower = stronger binding	binding	100%
COc1ccc(-c2c(Nc3ccccn3)[nH]c3c(C4=CCCCC4)c(-c4ccccc4)nn3c2=O)cc1	–	–	human, plasma	oral, 200 mg twice daily	–	apparent steady-state clearance	1610 mL/h and 1500 mL/h and 1620 mL/h

Excerpt of the above (series 2):
Sequence	E-score
CACGTGTA	-0.159
